Published values collected from several papers.
Each line is one published result; not all experiments were run side by side. Values joined by “and” are separate records of one study, mostly repeats; a detail may differ.
MAPK8: Mitogen-activated protein kinase 8 (MAPK8, Homo sapiens, UniProt P45983)
Sequence of UniProt P45983 (whole entry, unmodified, looked up): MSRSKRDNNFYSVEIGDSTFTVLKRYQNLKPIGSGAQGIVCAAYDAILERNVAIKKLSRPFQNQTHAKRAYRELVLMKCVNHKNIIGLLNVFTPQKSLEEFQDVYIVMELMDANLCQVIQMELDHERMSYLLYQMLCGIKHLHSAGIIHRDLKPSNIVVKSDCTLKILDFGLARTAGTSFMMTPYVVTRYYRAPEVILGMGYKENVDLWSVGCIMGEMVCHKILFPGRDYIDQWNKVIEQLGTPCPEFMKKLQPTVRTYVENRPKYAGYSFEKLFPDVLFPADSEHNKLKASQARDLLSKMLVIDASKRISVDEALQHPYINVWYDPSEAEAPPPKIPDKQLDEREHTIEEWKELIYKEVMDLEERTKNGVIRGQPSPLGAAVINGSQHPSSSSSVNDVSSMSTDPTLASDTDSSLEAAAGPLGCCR
MAPK8 C116S: Mitogen-activated protein kinase 8 (MAPK8, Homo sapiens, UniProt P45983, C116S)

Cc1cccc(O[C@H]2CCC[C@@H](C(C)CNCc3ccncc3)C2)c1 (relative stereo) has an inhibition of 0% (MAPK8; kinase activity, kinome panel screening; 1 µM).
COC(=O)[C@@]1(C)C=C(C(=O)NCc2cccc(C(=O)Nc3ccc(Nc4nccc(-c5cccnc5)n4)c(C)c3)c2)C(=O)CC1 gave a kon of 340000 M⁻¹ s⁻¹ (MAPK8 C116S; noncovalent binding, SPR; 100, 300, 1000 nM, two-step kinetic model).
For C=CC(=O)Nc1cccc(-c2cnc3[nH]cc(C(=O)NC(C)(C)C)c3n2)c1, the inhibition was -2% and 0% (MAPK8; kinase activity; 0.1 µM).
For CCN1CCN(Cc2ccc(C(=O)Nc3ccc(C)c(NCc4cnc5[nH]ccc5c4OC)c3)cc2C(F)(F)F)CC1, the remaining binding was 100% (MAPK8; binding, competition with immobilised ligand; 1 µM).
With CC(=O)Nc1ccc(-c2ccnc(NCC3CCC3)n2)cc1 the remaining binding was 0.95% (MAPK8; cell-free assay, competition with immobilised ligand; 10 µM).
For CNS(=O)(=O)Nc1nccc(Cc2c(C)c3ccc(Oc4ncccc4F)cc3oc2=O)c1F, the remaining binding was 76% (MAPK8; binding, competition with immobilised ligand; 10 µM).
For Cc1cccc(-c2ccc3nc(NC(=O)C4CCOCC4)nn3c2)c1, the remaining activity was 102% (MAPK8; enzyme activity, Dundee kinase panel; 10 µM).
For COc1ccc(C(=O)/C=C/c2ccccc2-c2c[nH]c3ccc(C#N)cc23)c(O)c1, the inhibition was -7% (MAPK8; enzyme activity, inhibitor; 20 µM).
NC(=O)C[C@H]1CCc2sc3ncnc(O[C@H]4CC[C@H](N5CCOCC5)CC4)c3c21 gave an inhibition of -1% (MAPK8; enzyme activity, inhibitor; 10 µM).
CN1CCN(Cc2ccc(NC(=O)c3cccc(C#Cc4cnc(N)c5ncccc45)c3)cc2C(F)(F)F)CC1 gave a remaining binding of 51% (MAPK8; cell-free assay, competition with immobilised ligand; 50 nM).
COc1ccc(O)cc1-c1c[nH]c2ncc(-c3cncc(C(=O)N(C)C)c3)cc12 has an inhibition of 7.26% (MAPK8; binding, competition with immobilised ligand; 0.2 µM).
CN(C)c1ccc(C#CCOC(=O)[C@]2(C)C=C(C(=O)OC(C)(C)C)C(=O)CC2)cc1 has a fraction bound of 0.217 (MAPK8; D-peptide binding, inhibitor, FP peptide displacement; 62.5 µM; lower is stronger displacement).
COc1cc(-n2cc3cc(F)cc(C(N)=O)c3n2)cc(Cl)c1C1CC(O)(CCO)Cc2ccccc21 (centres unmarked) gave an inhibition of 2.14% (MAPK8; enzyme activity, inhibitor; 10 µM).
For CN(C)c1ccc(-n2cc(COC(=O)[C@]3(C)C=C(C(=O)OC(C)(C)C)C(=O)CC3)nn2)cc1, the fraction bound was 0.84 (MAPK8; D-peptide binding, inhibitor, FP peptide displacement; 6.25 µM; lower is stronger displacement).
CC(=O)N1c2ccc(-c3ccc(CNC(=O)c4cn5cc(-c6cnc(N)nc6)nc(N6CCOCC6)c5n4)cc3)cc2CC[C@@H]1C gave a remaining binding of 51% (MAPK8; KINOMEscan; 10 µM).
Cc1cc(NC(=O)c2cccc(NC(=O)/C(C#N)=C/C(C)(C)C)c2)ccc1Nc1nccc(-c2cccnc2)n1 gave a kon of 110000 M⁻¹ s⁻¹ (MAPK8 C116S; noncovalent binding, SPR; 100, 300, 1000 nM, two-step kinetic model).
CN1CCN(Cc2ccc(-c3ccc(CO[C@H]4CCC[C@@H]4NC(=O)c4cc(-c5cnn(C)c5)cnc4N)cc3)cc2)CC1 has an inhibition of 6% (MAPK8; enzyme activity, inhibitor; 0.1 µM).
With COC(=O)[C@@]1(C)C=C(C(=O)Nc2cccc(C(=O)Nc3ccc(Nc4nccc(-c5cccnc5)n4)c(C)c3)c2)C(=O)CC1 the remaining activity was 0.165 (MAPK8; enzyme activity, inhibitor; 0.1829 µM, 6 h, unit not given, with: GSH 10 mM pre-incubation; reference: vehicle).
COC(=O)[C@@]1(C)C=C(C(=O)OC(C)(C)C)C(=O)CC1 has a fraction bound of 0.333 (MAPK8; D-peptide binding, inhibitor, FP peptide displacement; 250 µM; lower is stronger displacement).
C=C1C[C@@]2(C(=O)OC)C=C(C(=O)Nc3cccc(C(=O)Nc4ccc(Nc5nccc(-c6cccnc6)n5)c(C)c4)c3)C(=O)[C@@H]1C2 — result for “ΔΔG bond formation contribution”: -2.5 kcal/mol (MAPK8; SPR two-step binding model; reversible bond formation).
The fraction bound of COC(=O)[C@@]1(Cc2ccccc2)C=C(C(=O)OC(C)(C)C)C(=O)CC1 is reported as 0.468 (MAPK8; D-peptide binding, inhibitor, FP peptide displacement; 7.812 µM; lower is stronger displacement).
Cc1cnc2nc1Nc1cccc(c1)COC/C=C/COCc1cc(ccc1OCCN1CCOCC1)N2 gave a remaining signal of 53% (MAPK8; cell-free assay; 0.1 µM).
Cc1ccc(-c2c(/C=C(\C#N)C(=O)NC(C)C)n(CCCO)c3ncnc(N)c23)cc1 gave a remaining binding of 100% (MAPK8; binding, competition with immobilised ligand; 1 µM).
For CC(C)(C)OC(=O)C1=C[C@@](C)(C(=O)OCC#Cc2ccncc2)CCC1=O, the fraction bound was 0.835 (MAPK8; D-peptide binding, inhibitor, FP peptide displacement; 6.25 µM; lower is stronger displacement).
CN1CC[C@@H](COc2cnc(C#N)cc2-c2ccn3nc(NC(=O)C4CC4)cc3c2)C1 gave an inhibition of 1% (MAPK8; enzyme activity, inhibitor; 1 µM).
With C=CC(=O)N1CCCC(n2c(=O)c3ncccc3n(Cc3ccc(Oc4ccccc4)cc3)c2=O)C1 (centres unmarked) the remaining binding was 78% (MAPK8; binding, competition with immobilised ligand; 1 µM).
With Nc1ncc2c(n1)-c1c([nH]c3ccc(C4=CCOCC4)cc13)CCC2 the remaining binding was 76% (MAPK8; binding, competition with immobilised ligand; 1 µM).
For C#CCOC(=O)[C@@]1(C)C=C(C(=O)OC(C)(C)C)C(=O)CC1, “normalized kinase activity” read 0.955 and 0.868 and 1.09 (MAPK8; enzyme activity, D-SENSOR; 0.1829 µM, single replicate).
COc1cc(Nc2nccc(-c3cnn4nc(OC)ccc34)n2)cc(C(F)(F)F)c1 has a remaining binding of 83% (MAPK8; binding, competition with immobilised ligand; 1 µM).

Repeated from above:
Cc1ccc(-c2c(/C=C(\C#N)C(=O)NC(C)C)n(CCCO)c3ncnc(N)c23)cc1 gave a remaining binding of 100% (MAPK8; binding, competition with immobilised ligand; 1 µM).
COc1ccc(O)cc1-c1c[nH]c2ncc(-c3cncc(C(=O)N(C)C)c3)cc12 has an inhibition of 7.26% (MAPK8; binding, competition with immobilised ligand; 0.2 µM).
COC(=O)[C@@]1(C)C=C(C(=O)OC(C)(C)C)C(=O)CC1 has a fraction bound of 0.333 (MAPK8; D-peptide binding, inhibitor, FP peptide displacement; 250 µM; lower is stronger displacement).
